Experimental data from different studies.
Each line is one published result; not all experiments were run side by side.
Organism: Enterococcus faecium

SMILES	technique	strain	sample	time	temperature	added	MIC
Oc1c(Br)cc(Br)cc1-c1[nH]c(Br)c(Br)c1Br	–	ATCC 6569	–	–	–	–	8 µM
Cc1ccc2[nH]c3c(c2c1)CCCC3NCCc1ccc(Br)cc1 (stereo not drawn)	broth microdilution	BM4147 vancomycin-resistant	–	–	–	–	4 µg/mL
CC[C@H](C)[C@H](NC(=O)[C@H](CC(C)C)NC(=O)[C@H](CCCNC(=N)N)NC(=O)[C@@H](N)CCCNC(=N)N)C(=O)N[C@@H](CCCNC(=N)N)C(=O)N[C@@H](CCCCN)C(=O)N[C@@H](CC(C)C)C(=O)N[C@@H](CCCCN)C(=O)NCC(=O)N1CCC[C@H]1C(=O)N[C@H](C(=O)N[C@H](C(=O)N[C@@H](Cc1ccc(O)cc1)C(=O)N[C@@H](CC(C)C)C(=O)N[C@@H](Cc1ccc(O)cc1)C(=O)N[C@@H](Cc1ccccc1)C(=O)N[C@@H](CCCCN)C(=O)N[C@@H](CC(C)C)C(=O)N[C@@H](CCC(N)=O)C(=O)N[C@@H](CC(C)C)C(=O)N[C@@H](CC(C)C)C(=O)N[C@@H](CCCCN)C(=O)N[C@@H](CCCCN)C(N)=O)[C@@H](C)CC)[C@@H](C)CC	–	ATCC 51559, vancomycin-resistant	Mueller-Hinton broth	24 h	–	–	16 µM
CN[C@H](CC(C)C)C(=O)N[C@H]1C(=O)N[C@@H](CC(N)=O)C(=O)N[C@H]2C(=O)N[C@H]3C(=O)N[C@H](C(=O)N[C@H](C(=O)O)c4cc(O)cc(O)c4-c4cc3ccc4O)[C@H](O)c3ccc(c(Cl)c3)Oc3cc2cc(c3O[C@@H]2O[C@H](CO)[C@@H](O)[C@H](O)[C@H]2O[C@H]2C[C@](C)(N)[C@H](O)[C@H](C)O2)Oc2ccc(cc2Cl)[C@H]1O	–	ATCC 700221 vancomycin-resistant	–	–	–	–	> 50 µg/mL
CN[C@H](CC(C)C)C(=O)N[C@H]1C(=O)N[C@@H](CC(N)=O)C(=O)N[C@H]2C(=O)NC3C(=O)N[C@H](C(=O)N[C@H](C(=O)NCCC[N+](C)(C)C)c4cc(O)cc(O)c4-c4cc3ccc4O)[C@H](O)c3ccc(c(Cl)c3)Oc3cc2cc(c3OC2OC(CO)C(O)[C@H](O)[C@@H]2O[C@H]2CC(C)(NCc3ccc(-c4ccc(Cl)cc4)cc3)[C@H](O)[C@H](C)O2)Oc2ccc(cc2Cl)[C@H]1O (stereo partly drawn)	–	VanA VRE ATCC BAA-2317	–	–	–	LTA 100 µg/mL	5 µg/mL
CCCCCCC#Cc1cncc(-c2nnc(SCc3cc([N+](=O)[O-])cc([N+](=O)[O-])c3)n2CCOC2OC(CN)C(O)C2O)c1 (stereo not drawn)	broth microdilution	ATCC 51559 MDR VRE	–	18 to 24 h	37 °C	–	32 µg/mL
CC[C@H](C)[C@H](NC(=O)CN)C(=O)NCC(=O)N[C@@H](CCCCN)C(=O)N[C@@H](Cc1ccccc1)C(=O)N[C@@H](CC(C)C)C(=O)N[C@@H](CCCCN)C(=O)N[C@@H](CCCCN)C(=O)N[C@@H](C)C(=O)N[C@@H](CCCCN)C(=O)N[C@@H](CCCCN)C(=O)N[C@@H](Cc1ccccc1)C(=O)NCC(=O)N[C@@H](CCCCN)C(=O)N[C@@H](C)C(=O)N[C@@H](Cc1ccccc1)C(=O)N[C@H](C(=O)N[C@@H](CCCCN)C(=O)N[C@H](C(=O)N[C@@H](CC(C)C)C(=O)N[C@@H](CCCCN)C(=O)N[C@@H](CCCCN)C(N)=O)[C@@H](C)CC)C(C)C	broth dilution	KCTC 13225	–	–	–	–	6.3 µM
CC[C@H](C)[C@H](NC(=O)[C@H](CC(C)C)NC(=O)[C@H](CCCNC(=N)N)NC(=O)[C@@H](N)CCCNC(=N)N)C(=O)N[C@@H](CCCNC(=N)N)C(=O)N[C@H](C(=O)N[C@@H](CC(C)C)C(=O)N[C@H](C(=O)NCC(=O)N1CCC[C@H]1C(=O)N[C@H](C(=O)N[C@H](C(=O)N[C@@H](Cc1ccc(O)cc1)C(=O)N[C@@H](CC(C)C)C(=O)N[C@@H](Cc1ccc(O)cc1)C(=O)N[C@@H](Cc1ccccc1)C(=O)N[C@@H](CCCCN)C(=O)N[C@@H](CC(C)C)C(=O)N[C@@H](CCC(N)=O)C(=O)N[C@@H](CC(C)C)C(=O)N[C@@H](CC(C)C)C(=O)N[C@@H](CCCCN)C(=O)N[C@@H](CCCCN)C(N)=O)[C@@H](C)CC)[C@@H](C)CC)[C@@H](C)O)[C@@H](C)O	–	ATCC 51559, vancomycin-resistant	Mueller-Hinton broth	24 h	–	–	32 µM
CCCCCCC#Cc1cncc(-c2nnc(SCc3cc([N+](=O)[O-])cc([N+](=O)[O-])c3)n2CCCN)c1	broth microdilution	ATCC 51559 MDR VRE	–	18 to 24 h	37 °C	–	16 µg/mL
CCCCCCCCCC(=O)N[C@@H](Cc1c[nH]c2ccccc12)C(=O)N[C@H](CC(N)=O)C(=O)N[C@@H](CC(=O)O)C(=O)N[C@@H]1C(=O)NCC(=O)N[C@@H](CCCN)C(=O)N[C@@H](CC(=O)O)C(=O)N[C@H](C)C(=O)N[C@@H](CC(=O)O)C(=O)NCC(=O)N[C@H](CO)C(=O)N[C@@H]([C@H](C)CC(=O)O)C(=O)N[C@@H](CC(=O)c2ccccc2N)C(=O)O[C@@H]1C	–	resistant isolate	–	16 h	–	Ca2+ 5 mM	4 µg/mL
CC[C@H](C)[C@H](N)C(=O)N[C@@H](CCCNC(=N)N)C(=O)N[C@H](C(=O)N[C@@H](Cc1c[nH]c2ccccc12)C(=O)N[C@@H](Cc1ccccc1)C(=O)N[C@H](C(=O)N[C@@H](CCCCN)C(=O)N[C@H](C(=O)N[C@@H](CCCNC(=N)N)C(=O)N[C@@H](CCCCN)C(=O)N[C@@H](Cc1c[nH]c2ccccc12)C(=O)N[C@@H](CCCCN)C(=O)N[C@@H](C)C(=O)N[C@H](C(=O)N[C@@H](Cc1ccc(O)cc1)C(=O)N[C@@H](Cc1c[nH]cn1)C(=O)N[C@H](C(N)=O)[C@@H](C)O)[C@@H](C)CC)C(C)C)[C@@H](C)CC)C(C)C	broth dilution	KCTC 13225	–	–	–	–	50 µM
CC(C)C[C@@H](NC(=O)CNC(=O)[C@@H](CCCCN)NC(=O)[C@@H](CC(C)C)NC(=O)[C@@H](CCCCN)NC(=O)[C@@H](CCCNC(=N)N)NC(=O)[C@@H](CC(C)C)NC(=O)[C@@H](CC(C)C)NC(=O)[C@@H](CCCNC(=N)N)NC(=O)[C@H](N)CCCNC(=N)N)C(=O)N[C@H](CCCCN)C(=O)N[C@H](CCCCN)C(=O)N[C@H](Cc1ccc(O)cc1)C(=O)N[C@H](CC(C)C)C(=O)N[C@H](Cc1ccc(O)cc1)C(=O)N[C@H](Cc1ccccc1)C(=O)N[C@H](CCCCN)C(=O)N[C@H](CC(C)C)C(=O)N[C@H](CCC(N)=O)C(=O)N[C@H](CC(C)C)C(=O)N[C@H](CC(C)C)C(=O)N[C@H](CCCCN)C(=O)N[C@H](CCCCN)C(N)=O	–	ATCC 51559, vancomycin-resistant	Mueller-Hinton broth	24 h	–	–	0.5 µM

A few entries again:
SMILES	technique	strain	sample	time	temperature	added	MIC
CN[C@H](CC(C)C)C(=O)N[C@H]1C(=O)N[C@@H](CC(N)=O)C(=O)N[C@H]2C(=O)NC3C(=O)N[C@H](C(=O)N[C@H](C(=O)NCCC[N+](C)(C)C)c4cc(O)cc(O)c4-c4cc3ccc4O)[C@H](O)c3ccc(c(Cl)c3)Oc3cc2cc(c3OC2OC(CO)C(O)[C@H](O)[C@@H]2O[C@H]2CC(C)(NCc3ccc(-c4ccc(Cl)cc4)cc3)[C@H](O)[C@H](C)O2)Oc2ccc(cc2Cl)[C@H]1O (stereo partly drawn)	–	VanA VRE ATCC BAA-2317	–	–	–	LTA 100 µg/mL	5 µg/mL
